# Experimental data from different studies.
# Lines come from different studies, so protocols differ. “And” joins repeats or separate records; there may be more than shown.
# Target: Receptor tyrosine-protein kinase erbB-4 (ERBB4, Homo sapiens, UniProt Q15303)
# UniProt Q15303, sequence (whole entry, looked up): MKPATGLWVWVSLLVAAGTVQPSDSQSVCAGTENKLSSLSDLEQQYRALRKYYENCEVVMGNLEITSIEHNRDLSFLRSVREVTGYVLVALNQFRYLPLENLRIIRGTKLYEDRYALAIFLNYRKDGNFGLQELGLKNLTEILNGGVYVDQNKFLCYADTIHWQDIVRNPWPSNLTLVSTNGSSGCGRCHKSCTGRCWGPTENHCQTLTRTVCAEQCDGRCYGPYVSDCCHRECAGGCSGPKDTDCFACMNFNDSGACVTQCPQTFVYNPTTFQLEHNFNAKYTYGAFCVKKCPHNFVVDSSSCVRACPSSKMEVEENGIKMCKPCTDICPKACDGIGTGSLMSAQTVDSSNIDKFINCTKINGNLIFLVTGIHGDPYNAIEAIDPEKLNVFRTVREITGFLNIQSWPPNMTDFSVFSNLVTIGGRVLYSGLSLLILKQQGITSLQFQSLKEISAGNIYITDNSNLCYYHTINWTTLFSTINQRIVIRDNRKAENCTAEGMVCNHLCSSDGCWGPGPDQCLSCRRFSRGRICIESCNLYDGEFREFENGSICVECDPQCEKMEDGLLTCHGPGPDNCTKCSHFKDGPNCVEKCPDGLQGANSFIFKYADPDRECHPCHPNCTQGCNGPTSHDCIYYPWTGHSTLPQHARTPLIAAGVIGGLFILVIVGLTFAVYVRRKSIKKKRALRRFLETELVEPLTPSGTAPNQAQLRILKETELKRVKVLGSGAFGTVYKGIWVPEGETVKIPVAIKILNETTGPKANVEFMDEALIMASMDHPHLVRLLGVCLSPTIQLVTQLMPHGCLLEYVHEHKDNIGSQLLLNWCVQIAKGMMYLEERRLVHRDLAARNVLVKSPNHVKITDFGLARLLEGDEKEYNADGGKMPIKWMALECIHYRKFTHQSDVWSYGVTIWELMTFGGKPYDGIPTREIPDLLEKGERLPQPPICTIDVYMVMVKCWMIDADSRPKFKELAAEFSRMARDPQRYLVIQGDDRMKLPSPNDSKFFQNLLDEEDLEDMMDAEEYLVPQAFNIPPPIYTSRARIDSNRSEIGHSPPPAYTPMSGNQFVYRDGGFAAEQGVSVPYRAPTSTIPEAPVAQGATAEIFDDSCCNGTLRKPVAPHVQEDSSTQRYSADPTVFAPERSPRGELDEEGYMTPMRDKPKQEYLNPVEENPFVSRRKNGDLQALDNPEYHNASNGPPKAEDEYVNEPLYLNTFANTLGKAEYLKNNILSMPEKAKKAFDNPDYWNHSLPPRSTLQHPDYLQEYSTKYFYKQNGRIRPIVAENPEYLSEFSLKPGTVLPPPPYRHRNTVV
Structure (SMILES),test,setting,scale,measurement,value
CC(=O)N1c2ccc(-c3ccc(CNC(=O)c4cn5cc(-c6cnc(N)nc6)nc(N6CCOCC6)c5n4)cc3)cc2CC[C@@H]1C,KINOMEscan,10 µM,,remaining binding,77%
Nc1ncc(-c2cc(-c3cnn(CC(F)(F)F)c3)ncc2F)nc1C(=O)NC1CNCC(F)C1 (stereo not shown),enzyme activity,1 µM,relative to: DMSO control,remaining activity,96.7%
CCN1CCN(Cc2ccc(C(=O)Nc3ccc(C)c(NCc4cnc5[nH]ccc5c4OC)c3)cc2C(F)(F)F)CC1,"binding, competition with immobilised ligand",1 µM,,remaining binding,0.75%
COc1ccc(NC(=O)Nc2ccc3c(c2)C(=O)N(C(C)CO)CC(C)C(CN(C)Cc2ccc4c(c2)OCO4)O3)cc1 (stereo not shown),"kinase activity, KinaseProfiler","0.03 µM, species human",relative to: control,remaining activity,97%
Cc1cccc(O[C@H]2CCC[C@@H](C(C)CNCc3ccncc3)C2)c1 (relative stereo),"enzyme activity, inhibitor",10 µM,,inhibition,1%
CNC1C[S+]2CC[S+]3CC[S+](C1)[Ru-4]321([N]=C=S)[n]2c3ccc(OC)cc3c3c4c(c5cc(F)c[n+]1c5c32)C(=O)NC4=O (stereo not shown),KinomeScan,0.1 µM,relative to: untreated,remaining binding,100%
C=CC(=O)Nc1cccc(-c2cnc3[nH]cc(C(=O)NC(C)(C)C)c3n2)c1,kinase activity,0.1 µM,,inhibition,6% and 3%
COc1cc(OC)c(F)c(/C=C/c2cnc3ccn(S(=O)(=O)c4cn(CCF)cn4)c3n2)c1F,,100 nM,,inhibition,6.1%
COCC12C(=O)NC3C4(C(OC)CC1O)C1CC5(O)C(OC)C(O)C(OC(C)=O)(C1C5OC(=O)c1ccccc1)C3(O)C(OC)C24 (stereo not shown),"kinase activity, inhibitor, ProQinase kinase profiling",25 µM,relative to: control,remaining activity,116% and 111%
CCN1CCN(Cc2ccc(NC(=O)c3ccc(C)c(NC(=O)c4cncc(-c5cccs5)c4)c3)cc2C(F)(F)F)CC1,"binding, competition with immobilised ligand",1 µM,,remaining binding,1.9%
CN1CCN(Cc2ccc(NC(=O)c3cccc(C#Cc4cnc(N)c5ncccc45)c3)cc2C(F)(F)F)CC1,"cell-free assay, competition with immobilised ligand",0.5 µM,,remaining binding,15%
Cc1ccc(-c2c(/C=C(\C#N)C(=O)NC(C)C)n(CCCO)c3ncnc(N)c23)cc1,"cell-free assay, competition with immobilised ligand",1 µM,,remaining binding,99%
COc1cc(Nc2nccc(-c3cnn4nc(OC)ccc34)n2)cc(C(F)(F)F)c1,"binding, competition with immobilised ligand",1 µM,,remaining binding,93%
Cc1cnc2nc1Nc1cccc(c1)COC/C=C/COCc1cc(ccc1OCCN1CCOCC1)N2,binding,0.1 µM,,remaining binding,81%
C=CC(=O)N1CCCC(n2c(=O)c3ncccc3n(Cc3ccc(Oc4ccccc4)cc3)c2=O)C1 (stereo not shown),"cell-free assay, competition with immobilised ligand",1 µM,,remaining binding,90%
CN1CCN(c2ccc(Nc3ncc(Cl)c(Nc4ccccc4P(C)(C)=O)n3)cc2Br)CC1,"enzyme activity, inhibitor",0.1 µM,,inhibition,4.4%
NC(=O)[C@@H](O)C[C@H]1CCc2sc3ncnc(O[C@H]4CC[C@H](N5CCOCC5)CC4)c3c21,"enzyme activity, inhibitor",10 µM,,inhibition,26%
C=CC(=O)N1CCc2ccc(-n3c(=O)ccc4cnc5ccc(-c6cnn(C)c6)cc5c43)cc21,KINOMEscan,1 µM,relative to: DMSO control,remaining binding,78%
O=C(Cc1ccc(OCc2ccccc2)cc1)NC1(C(=O)O)CCN(C(=O)c2ccc(-c3cccc(Cl)c3)cc2)CC1,"enzyme activity, inhibitor",10 µM,,activity vs control,108%
COc1c(OCCCN2CCOCC2)ccc2c1N=C(NC(=O)c1cnc(N)nc1)N1CCN=C21,"kinase activity, inhibitor",1 µM,relative to: untreated control,remaining activity,119%
C=C1CCCCCCCCCC(CO)C1=O (stereo not shown),"cell-free assay, competition with immobilised ligand",10 µM,,remaining binding,91%
CNC(=O)C[C@H](Cc1ccc(C#N)cc1)NC(=O)c1cc(-c2ccc(CN[C@H](C)c3ccc(C)cc3)o2)ccc1Cl,"enzyme activity, inhibitor",1 µM,,activity vs control,99%

# For quick reference, copied from above:
Structure (SMILES),test,setting,scale,measurement,value
NC(=O)[C@@H](O)C[C@H]1CCc2sc3ncnc(O[C@H]4CC[C@H](N5CCOCC5)CC4)c3c21,"enzyme activity, inhibitor",10 µM,,inhibition,26%
C=CC(=O)N1CCc2ccc(-n3c(=O)ccc4cnc5ccc(-c6cnn(C)c6)cc5c43)cc21,KINOMEscan,1 µM,relative to: DMSO control,remaining binding,78%
